Results of several laboratories.
Numbered parts are unrelated; each lists some results of a single study. ± marks the error that the study gave.

Protein sequences, listed by entry. Tags and fused reporters are not part of them. Residues count along the entry.
UniProt P37136, 32-614 limits assumed: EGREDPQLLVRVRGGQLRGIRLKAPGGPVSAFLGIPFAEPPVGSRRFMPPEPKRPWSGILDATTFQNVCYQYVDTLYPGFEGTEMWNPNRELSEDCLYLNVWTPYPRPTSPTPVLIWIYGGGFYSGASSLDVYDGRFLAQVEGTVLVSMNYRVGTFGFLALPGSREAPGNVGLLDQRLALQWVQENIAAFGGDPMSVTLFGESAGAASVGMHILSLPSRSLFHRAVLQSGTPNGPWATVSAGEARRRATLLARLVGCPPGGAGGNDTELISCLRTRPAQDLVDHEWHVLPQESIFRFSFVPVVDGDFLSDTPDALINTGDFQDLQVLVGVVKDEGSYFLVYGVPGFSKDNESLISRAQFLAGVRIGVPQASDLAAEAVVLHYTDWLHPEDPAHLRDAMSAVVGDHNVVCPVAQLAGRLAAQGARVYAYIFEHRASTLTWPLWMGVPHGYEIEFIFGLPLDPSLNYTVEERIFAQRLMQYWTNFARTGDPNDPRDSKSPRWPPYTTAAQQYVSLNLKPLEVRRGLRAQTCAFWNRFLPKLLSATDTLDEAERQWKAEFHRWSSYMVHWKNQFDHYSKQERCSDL
UniProt P19111, 20-533 limits assumed: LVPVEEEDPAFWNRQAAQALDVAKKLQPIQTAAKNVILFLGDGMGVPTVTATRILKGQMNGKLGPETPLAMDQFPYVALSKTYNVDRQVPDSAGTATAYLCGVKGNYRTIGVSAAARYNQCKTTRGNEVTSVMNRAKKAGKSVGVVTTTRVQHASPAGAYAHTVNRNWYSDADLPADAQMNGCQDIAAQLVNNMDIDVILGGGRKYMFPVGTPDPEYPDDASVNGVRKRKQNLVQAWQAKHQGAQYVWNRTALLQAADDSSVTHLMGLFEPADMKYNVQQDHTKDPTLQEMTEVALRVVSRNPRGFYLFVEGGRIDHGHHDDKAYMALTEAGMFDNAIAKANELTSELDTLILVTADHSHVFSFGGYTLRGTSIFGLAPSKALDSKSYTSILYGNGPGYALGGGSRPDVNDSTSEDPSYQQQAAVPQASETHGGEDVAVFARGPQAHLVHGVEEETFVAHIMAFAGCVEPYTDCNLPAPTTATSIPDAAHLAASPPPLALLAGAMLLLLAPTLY

Set 1
Organism: SARS-CoV-2
Concentration: 10 µM
Baseline: positive control
| Structure (SMILES) | log difference |
| --- | --- |
| CCOc1ccc(C2C(C#N)=C(N)Oc3c2c(C)nn3-c2ccc(Cl)cc2)cc1 (stereo not drawn) | -0.616 |
| Cc1nn(-c2ccc(Cl)cc2)c2c1C(c1cc(Cl)ccc1Cl)C(C#N)=C(N)O2 (stereo not drawn) | -0.282 |
| COc1cc(C2C(C#N)=C(N)Oc3c2c(C)nn3-c2ccc(Cl)cc2)ccc1O (stereo not drawn) | -0.436 |

Mixed results
| Structure (SMILES) | target | assay | system | conditions | IC50 [nM] |
| --- | --- | --- | --- | --- | --- |
| C[C@H](NC(=O)[C@@H](c1cccnc1)N(C(=O)CC#N)c1ccc(-c2ccccc2)cc1)c1ccccc1 | Replicase polyprotein 1ab, main protease (rep, Severe acute respiratory syndrome coronavirus 2, UniProt P0DTD1) | enzyme activity, inhibitor |  |  | 500 |
| COP(=O)(OC)Oc1ccc([N+](=O)[O-])cc1Cl | Ache (Rattus norvegicus, UniProt P37136) | inhibitor | rat, postnatal day 1, rat serum |  | 94 |
| COc1ccccc1N1CC2=C(C1=O)C(c1ccccc1O)NC(=O)N2 (stereo not drawn) | ALPI (Bos taurus, UniProt P19111) | enzyme activity |  | pH 9.5, added: p-nitrophenyl phosphate 0.5 mM | 2130 ± 34 |

For quick reference, copied from above (mixed results):
| Structure (SMILES) | target | assay | system | conditions | IC50 [nM] |
| --- | --- | --- | --- | --- | --- |
| COc1ccccc1N1CC2=C(C1=O)C(c1ccccc1O)NC(=O)N2 (stereo not drawn) | ALPI (Bos taurus, UniProt P19111) | enzyme activity |  | pH 9.5, added: p-nitrophenyl phosphate 0.5 mM | 2130 ± 34 |
